{"data": "Results of several laboratories", "note": "Each numbered part is a random draw from the data of one study; scales do not carry over between parts. Values joined by “and” are separate records of one study, mostly repeats; a detail may differ.", "sequence of UniProt Q06187 (whole entry, looked up)": "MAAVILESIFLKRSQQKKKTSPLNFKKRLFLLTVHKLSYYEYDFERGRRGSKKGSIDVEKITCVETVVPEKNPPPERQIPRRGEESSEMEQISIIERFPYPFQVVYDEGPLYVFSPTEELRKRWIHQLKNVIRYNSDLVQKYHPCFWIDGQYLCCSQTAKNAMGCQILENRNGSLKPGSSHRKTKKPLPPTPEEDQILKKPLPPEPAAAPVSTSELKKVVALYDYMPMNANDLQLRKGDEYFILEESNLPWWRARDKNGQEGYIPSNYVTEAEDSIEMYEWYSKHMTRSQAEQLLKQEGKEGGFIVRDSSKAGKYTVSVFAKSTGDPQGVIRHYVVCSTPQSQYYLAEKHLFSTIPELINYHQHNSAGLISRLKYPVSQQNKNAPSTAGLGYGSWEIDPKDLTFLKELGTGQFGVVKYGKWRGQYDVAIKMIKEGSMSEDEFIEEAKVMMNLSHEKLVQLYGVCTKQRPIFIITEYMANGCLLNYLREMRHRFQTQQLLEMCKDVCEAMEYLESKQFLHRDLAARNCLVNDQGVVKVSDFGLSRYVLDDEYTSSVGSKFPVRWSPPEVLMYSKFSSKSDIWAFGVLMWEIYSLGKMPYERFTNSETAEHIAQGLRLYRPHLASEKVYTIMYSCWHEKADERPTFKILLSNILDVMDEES", "sequence of UniProt Q9Y243 (whole entry, looked up)": "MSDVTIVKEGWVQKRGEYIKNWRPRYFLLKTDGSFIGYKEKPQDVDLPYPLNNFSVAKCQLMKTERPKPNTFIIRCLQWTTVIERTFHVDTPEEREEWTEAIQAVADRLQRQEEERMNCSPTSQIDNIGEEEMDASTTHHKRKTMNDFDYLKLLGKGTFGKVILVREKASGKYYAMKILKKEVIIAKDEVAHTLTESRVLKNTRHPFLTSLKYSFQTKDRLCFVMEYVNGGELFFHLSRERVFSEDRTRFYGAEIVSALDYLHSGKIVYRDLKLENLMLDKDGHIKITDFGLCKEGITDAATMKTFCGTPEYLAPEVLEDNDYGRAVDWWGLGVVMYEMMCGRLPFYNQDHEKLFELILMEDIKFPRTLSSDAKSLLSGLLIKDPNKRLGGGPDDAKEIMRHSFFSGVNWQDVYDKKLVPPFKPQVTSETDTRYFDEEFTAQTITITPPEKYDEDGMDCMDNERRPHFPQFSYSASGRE", "sequence of UniProt Q9NYY3 (whole entry, looked up)": "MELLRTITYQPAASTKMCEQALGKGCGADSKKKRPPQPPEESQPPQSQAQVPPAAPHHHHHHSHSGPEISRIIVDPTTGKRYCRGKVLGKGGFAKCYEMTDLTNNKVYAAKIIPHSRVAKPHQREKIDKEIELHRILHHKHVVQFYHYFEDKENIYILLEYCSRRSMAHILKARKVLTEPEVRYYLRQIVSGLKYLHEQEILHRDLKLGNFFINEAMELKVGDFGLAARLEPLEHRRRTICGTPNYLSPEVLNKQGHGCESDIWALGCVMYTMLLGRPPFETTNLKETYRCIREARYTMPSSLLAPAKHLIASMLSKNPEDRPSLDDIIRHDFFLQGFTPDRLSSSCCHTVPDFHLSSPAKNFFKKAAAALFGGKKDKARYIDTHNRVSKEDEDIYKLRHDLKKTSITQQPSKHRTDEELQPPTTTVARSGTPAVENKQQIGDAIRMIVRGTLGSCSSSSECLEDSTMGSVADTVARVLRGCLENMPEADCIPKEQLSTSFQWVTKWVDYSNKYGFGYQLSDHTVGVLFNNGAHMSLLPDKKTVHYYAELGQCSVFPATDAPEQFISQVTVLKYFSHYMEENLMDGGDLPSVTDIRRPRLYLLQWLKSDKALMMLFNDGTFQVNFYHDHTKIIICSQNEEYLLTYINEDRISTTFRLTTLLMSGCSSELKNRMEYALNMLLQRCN", "sequence of UniProt P53778 (whole entry, looked up)": "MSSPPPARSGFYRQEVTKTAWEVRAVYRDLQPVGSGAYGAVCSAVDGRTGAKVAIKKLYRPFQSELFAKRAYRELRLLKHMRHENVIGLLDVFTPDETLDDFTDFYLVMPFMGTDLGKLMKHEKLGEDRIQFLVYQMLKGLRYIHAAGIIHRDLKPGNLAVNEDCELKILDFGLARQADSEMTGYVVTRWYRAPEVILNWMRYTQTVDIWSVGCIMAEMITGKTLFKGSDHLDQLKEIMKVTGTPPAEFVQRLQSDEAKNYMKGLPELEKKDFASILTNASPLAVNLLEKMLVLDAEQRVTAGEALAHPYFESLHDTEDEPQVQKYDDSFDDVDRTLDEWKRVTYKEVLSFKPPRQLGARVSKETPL", "sequence of UniProt Q96PN8 (whole entry, looked up)": "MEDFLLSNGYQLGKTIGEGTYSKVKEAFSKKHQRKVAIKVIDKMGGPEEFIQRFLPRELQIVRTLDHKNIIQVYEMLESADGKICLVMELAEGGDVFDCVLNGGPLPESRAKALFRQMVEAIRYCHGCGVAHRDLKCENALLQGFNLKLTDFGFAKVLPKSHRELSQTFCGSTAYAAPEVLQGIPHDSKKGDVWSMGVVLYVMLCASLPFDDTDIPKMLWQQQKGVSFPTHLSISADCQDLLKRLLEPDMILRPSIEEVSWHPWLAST"}
{"data": "Series 1", "SMILES": "COc1ccc2c(O[C@@H]3C[C@H]4C(=O)N[C@]5(C(=O)O)CC5/C=C\\CCCCC[C@H](NC(=O)OC5CCCC5)C(=O)N4C3)cc(-c3csc(NC(=O)C(C)C)n3)nc2c1C (some centres unmarked)", "observed": "cell-free assay", "technique": "competition with immobilised ligand", "tested at": "1 µM"}
{"target": "Tyrosine-protein kinase ABL1, phosphorylated (ABL1, Homo sapiens, UniProt P00519, T315I)", "remaining binding": "87%"}
{"target": "Phosphatidylinositol 4,5-bisphosphate 3-kinase catalytic subunit alpha isoform (PIK3CA, Homo sapiens, UniProt P42336, C420R)", "remaining binding": "100%"}
{"target": "RAC-gamma serine/threonine-protein kinase (AKT3, Homo sapiens, UniProt Q9Y243)", "remaining binding": "93%"}
{"target": "Tyrosine-protein kinase BTK (BTK, Homo sapiens, UniProt Q06187)", "remaining binding": "85%"}
{"target": "Serine/threonine-protein kinase PAK 3 (PAK3, Homo sapiens, UniProt O75914)", "remaining binding": "100%"}
{"target": "Dual specificity mitogen-activated protein kinase kinase 3 (MAP2K3, Homo sapiens, UniProt P46734)", "remaining binding": "82%"}
{"target": "Fibroblast growth factor receptor 3 (FGFR3, Homo sapiens, UniProt P22607, G697C)", "remaining binding": "88%"}
{"target": "High affinity nerve growth factor receptor (NTRK1, Homo sapiens, UniProt P04629)", "remaining binding": "82%"}
{"target": "Testis-specific serine/threonine-protein kinase 3 (TSSK3, Homo sapiens, UniProt Q96PN8)", "remaining binding": "80%"}
{"target": "Tyrosine-protein kinase Lck (LCK, Homo sapiens, UniProt P06239)", "remaining binding": "100%"}
{"target": "Mitogen-activated protein kinase kinase kinase 2 (MAP3K2, Homo sapiens, UniProt Q9Y2U5)", "remaining binding": "100%"}
{"target": "Peripheral plasma membrane protein CASK (CASK, Homo sapiens, UniProt O14936)", "remaining binding": "97%"}
{"target": "Mitogen-activated protein kinase kinase kinase 13 (MAP3K13, Homo sapiens, UniProt O43283)", "remaining binding": "86%"}
{"target": "Atypical kinase COQ8B, mitochondrial (COQ8B, Homo sapiens, UniProt Q96D53)", "remaining binding": "100%"}
{"target": "MAP/microtubule affinity-regulating kinase 3 (MARK3, Homo sapiens, UniProt P27448)", "remaining binding": "95%"}
{"data": "Series 2", "species": "mouse", "matrix": "microsomes or S9", "tested at": "2 µM", "time": "0.5 h"}
{"Structure (SMILES)": "Cc1cc(C#N)cc(C(=O)c2c(C(C)C)c(=O)n(Cc3cc(Cl)cc(Cl)n3)c(=O)n2Cc2cc(Cl)nc(Cl)n2)c1", "remaining compound": "0%"}
{"Structure (SMILES)": "COCC(C)(C)c1noc(-c2cccc3nn[nH]c23)n1", "remaining compound": "27.2%"}
{"Structure (SMILES)": "CN1CCN(c2nc(O)c3c(-c4ccsc4)ccnc3n2)CC1", "remaining compound": "54.4%"}
{"Structure (SMILES)": "CC(Oc1ccc(F)cc1Br)C(=O)NCC(C)c1ccncc1 (centres unmarked)", "remaining compound": "1.84%"}
{"Structure (SMILES)": "CC(C)C[C@@H]1N/C(=N/c2ccccc2)N(c2ccccc2)C1=O", "remaining compound": "48.8%"}
{"Structure (SMILES)": "Nc1ccc2oc(=O)c3c(c2c1)CC(C(F)(F)F)S3 (centres unmarked)", "remaining compound": "38.2%"}
{"Structure (SMILES)": "Cc1oc(-c2nc(C#N)c(N(C)C)o2)cc1S(=O)(=O)N(C)c1ccccc1", "remaining compound": "95.7%"}
{"Structure (SMILES)": "O=C1Cn2nnc(C(=O)c3ccccc3)c2C2(CCCCC2)O1", "remaining compound": "89.5%"}
{"Structure (SMILES)": "CC(C)=CCO[C@H]1CCOC[C@H]1Nc1ncc(F)c(N2CCOCC2)n1", "remaining compound": "0.0252%"}
{"Structure (SMILES)": "COc1cc(C)c(S(=O)(=O)N2CCN(c3cc(-n4ccnc4C)ncn3)CC2)cc1C", "remaining compound": "1.16%"}
{"Structure (SMILES)": "CC(C)(C)c1cnnn1-c1ccc(C(=O)COC(=O)c2ccccc2)cc1", "remaining compound": "< 1%"}
{"data": "Series 3", "target": "DNA polymerase theta, ATPase domain (POLQ, Homo sapiens, UniProt O75417)", "observed": "enzyme activity", "mode": "inhibitor", "tested at": "77 µM", "relative to": "untreated", "sequence of UniProt O75417 (whole entry, unmodified, looked up)": "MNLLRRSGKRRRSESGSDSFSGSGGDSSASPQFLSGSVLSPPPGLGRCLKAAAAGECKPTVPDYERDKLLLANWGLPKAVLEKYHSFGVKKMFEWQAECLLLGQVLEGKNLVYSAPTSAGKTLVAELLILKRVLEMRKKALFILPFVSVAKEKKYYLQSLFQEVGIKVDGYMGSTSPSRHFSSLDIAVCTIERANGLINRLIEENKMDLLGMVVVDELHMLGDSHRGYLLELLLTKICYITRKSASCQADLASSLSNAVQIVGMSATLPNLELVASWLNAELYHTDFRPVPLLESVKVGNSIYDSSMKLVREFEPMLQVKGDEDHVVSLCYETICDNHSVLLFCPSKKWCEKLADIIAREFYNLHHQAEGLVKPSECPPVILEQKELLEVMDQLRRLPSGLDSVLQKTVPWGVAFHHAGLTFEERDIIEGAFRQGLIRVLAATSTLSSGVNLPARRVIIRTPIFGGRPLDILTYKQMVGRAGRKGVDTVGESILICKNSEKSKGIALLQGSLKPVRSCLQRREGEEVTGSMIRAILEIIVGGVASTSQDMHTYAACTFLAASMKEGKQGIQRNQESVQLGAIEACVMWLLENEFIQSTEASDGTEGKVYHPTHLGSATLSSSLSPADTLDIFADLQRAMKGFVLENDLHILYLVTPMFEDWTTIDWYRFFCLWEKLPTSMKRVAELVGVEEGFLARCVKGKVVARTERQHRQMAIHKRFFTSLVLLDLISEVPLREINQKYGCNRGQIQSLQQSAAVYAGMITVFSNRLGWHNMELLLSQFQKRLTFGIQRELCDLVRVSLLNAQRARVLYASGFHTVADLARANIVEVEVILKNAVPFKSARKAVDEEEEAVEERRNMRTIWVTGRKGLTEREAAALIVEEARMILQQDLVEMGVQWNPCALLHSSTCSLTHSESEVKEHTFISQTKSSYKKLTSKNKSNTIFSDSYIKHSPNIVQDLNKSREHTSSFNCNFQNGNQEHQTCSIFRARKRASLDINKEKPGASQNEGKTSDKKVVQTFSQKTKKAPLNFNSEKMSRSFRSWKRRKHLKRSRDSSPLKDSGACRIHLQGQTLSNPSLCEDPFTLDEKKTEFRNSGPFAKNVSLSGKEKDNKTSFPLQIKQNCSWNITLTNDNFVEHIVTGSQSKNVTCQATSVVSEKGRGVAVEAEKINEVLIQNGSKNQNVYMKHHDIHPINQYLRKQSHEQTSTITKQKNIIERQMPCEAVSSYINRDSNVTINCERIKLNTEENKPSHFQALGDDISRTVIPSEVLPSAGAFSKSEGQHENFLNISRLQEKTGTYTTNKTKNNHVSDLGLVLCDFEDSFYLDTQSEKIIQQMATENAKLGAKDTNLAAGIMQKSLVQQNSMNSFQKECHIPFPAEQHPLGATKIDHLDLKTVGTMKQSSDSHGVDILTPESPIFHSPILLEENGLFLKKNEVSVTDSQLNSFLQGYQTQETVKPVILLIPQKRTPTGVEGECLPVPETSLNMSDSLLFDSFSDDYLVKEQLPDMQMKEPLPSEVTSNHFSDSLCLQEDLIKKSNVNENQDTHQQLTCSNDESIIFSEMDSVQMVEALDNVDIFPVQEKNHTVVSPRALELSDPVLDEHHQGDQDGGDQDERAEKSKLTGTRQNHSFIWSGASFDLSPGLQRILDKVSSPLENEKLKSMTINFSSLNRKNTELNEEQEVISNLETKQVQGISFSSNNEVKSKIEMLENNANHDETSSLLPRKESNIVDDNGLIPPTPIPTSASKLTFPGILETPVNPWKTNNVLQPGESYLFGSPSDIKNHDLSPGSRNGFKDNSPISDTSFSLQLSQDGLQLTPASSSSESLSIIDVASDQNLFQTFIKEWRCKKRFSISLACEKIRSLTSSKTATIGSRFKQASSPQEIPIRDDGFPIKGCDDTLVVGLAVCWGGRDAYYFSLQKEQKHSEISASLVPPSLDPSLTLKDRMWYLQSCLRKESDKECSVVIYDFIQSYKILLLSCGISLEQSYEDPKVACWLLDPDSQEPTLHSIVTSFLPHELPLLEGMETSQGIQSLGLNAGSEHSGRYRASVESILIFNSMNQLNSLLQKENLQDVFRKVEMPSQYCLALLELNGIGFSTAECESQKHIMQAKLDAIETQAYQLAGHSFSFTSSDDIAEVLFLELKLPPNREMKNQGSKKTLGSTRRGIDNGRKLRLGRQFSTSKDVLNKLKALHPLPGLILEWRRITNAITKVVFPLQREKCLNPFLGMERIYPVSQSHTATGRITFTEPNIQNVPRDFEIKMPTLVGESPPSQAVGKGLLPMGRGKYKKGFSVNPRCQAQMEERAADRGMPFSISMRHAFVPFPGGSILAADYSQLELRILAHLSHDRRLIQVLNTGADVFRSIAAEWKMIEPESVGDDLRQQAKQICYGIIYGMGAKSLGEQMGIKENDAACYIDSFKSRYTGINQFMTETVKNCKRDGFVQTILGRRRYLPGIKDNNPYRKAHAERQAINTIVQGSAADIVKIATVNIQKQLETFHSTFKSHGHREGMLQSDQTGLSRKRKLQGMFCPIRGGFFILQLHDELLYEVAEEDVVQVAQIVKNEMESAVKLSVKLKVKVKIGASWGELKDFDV"}
{"SMILES": "O=C(CCCN1CCC(O)(c2ccc(Br)cc2)CC1)c1ccc(F)cc1", "remaining activity": "101%"}
{"SMILES": "O=c1c(O)c(-c2ccc(O)c(O)c2)oc2cc(O)c(O)c(O)c12", "remaining activity": "97.3%"}
{"SMILES": "Cc1nc(C#Cc2ccnc(Cl)c2)c(C)n1-c1ccc(OC(F)(F)F)cc1", "remaining activity": "95.2%"}
{"SMILES": "Cc1cncc2cccc(S(=O)(=O)N3CCCN(C(=O)CN)C[C@@H]3C)c12", "remaining activity": "99.8%"}
{"SMILES": "O=C(O)c1ccc2c(c1)nc(Nc1cccc(Cl)c1)c1ccncc12", "remaining activity": "95.3%"}
{"SMILES": "COc1cc(F)c(F)c(Nc2ccc(I)cc2F)c1NS(=O)(=O)C1(C[C@H](O)CO)CC1", "remaining activity": "93.7%"}
{"SMILES": "CN1CCN(C2=Nc3ccccc3Oc3ccc(Cl)cc32)CC1", "remaining activity": "95.3% and 90.1%"}
{"SMILES": "C=C1/C(=C\\C=C2/CCC[C@]3(C)[C@@H]([C@H](C)CCCC(C)C)CC[C@@H]23)C[C@@H](O)C[C@@H]1O", "remaining activity": "98.6%"}
{"SMILES": "Cc1cn([C@@H]2C[C@@H](O)[C@H](CO)O2)c(=O)[nH]c1=O", "remaining activity": "101%"}
{"SMILES": "CC(C)CN(C[C@@H](O)[C@H](Cc1ccccc1)NC(=O)O[C@H]1CCOC1)S(=O)(=O)c1ccc(N)cc1", "remaining activity": "101%"}
{"SMILES": "CC1=C(C(=O)O)N2C(=O)[C@@H](NC(=O)[C@H](N)C3=CCC=CC3)[C@H]2SC1", "remaining activity": "99.8%"}
{"SMILES": "O=C1C(O)=C([C@H]2CC[C@H](c3ccc(Cl)cc3)CC2)C(=O)c2ccccc21", "remaining activity": "87.7% and 94.8%"}
{"SMILES": "CC(=O)Nc1cc2ccccc2oc1=O", "remaining activity": "87.8%"}
{"data": "Series 4", "Compound": "O=Nc1c(-c2c(O)[nH]c3ccccc23)[nH]c2ccccc12", "observed": "enzyme activity", "mode": "inhibitor", "tested at": "0.5 µM", "relative to": "control"}
{"target": "cGMP-dependent protein kinase 1 (PRKG1, Homo sapiens, UniProt Q13976)", "remaining activity [%]": 86}
{"target": "Serine/threonine-protein kinase Nek4 (NEK4, Homo sapiens, UniProt P51957)", "remaining activity [%]": 95}
{"target": "Leucine-rich repeat serine/threonine-protein kinase 2 (LRRK2, Homo sapiens, UniProt Q5S007)", "remaining activity [%]": 91.6}
{"target": "Interleukin-1 receptor-associated kinase 4 (IRAK4, Homo sapiens, UniProt Q9NWZ3)", "remaining activity [%]": 102}
{"target": "Mitogen-activated protein kinase kinase kinase kinase 2 (MAP4K2, Homo sapiens, UniProt Q12851)", "remaining activity [%]": 57.3}
{"target": "Mitogen-activated protein kinase kinase kinase 10 (MAP3K10, Homo sapiens, UniProt Q02779)", "remaining activity [%]": 95.2}
{"target": "Casein kinase I isoform alpha (CSNK1A1, Homo sapiens, UniProt P48729)", "remaining activity [%]": 48.2}
{"target": "RAC-gamma serine/threonine-protein kinase (AKT3, Homo sapiens, UniProt Q9Y243)", "remaining activity [%]": 98.8}
{"target": "Tyrosine-protein kinase BTK (BTK, Homo sapiens, UniProt Q06187)", "remaining activity [%]": 59.3}
{"target": "Protein kinase C delta type (PRKCD, Homo sapiens, UniProt Q05655)", "remaining activity [%]": 95}
{"target": "Mitogen-activated protein kinase 13 (MAPK13, Homo sapiens, UniProt O15264)", "remaining activity [%]": 105}
{"target": "Tyrosine-protein kinase Lyn (LYN, Homo sapiens, UniProt P07948)", "remaining activity [%]": 64.6}
{"target": "Serine/threonine-protein kinase WNK2 (WNK2, Homo sapiens, UniProt Q9Y3S1)", "remaining activity [%]": 99.8}
{"target": "Mitogen-activated protein kinase 12 (MAPK12, Homo sapiens, UniProt P53778)", "remaining activity [%]": 99.5}
{"target": "Ephrin type-A receptor 5 (EPHA5, Homo sapiens, UniProt P54756)", "remaining activity [%]": 86.5}
{"target": "Casein kinase II subunit alpha (CSNK2A1, Homo sapiens, UniProt P68400)", "remaining activity [%]": 78.2}
{"target": "Serine/threonine-protein kinase PLK2 (PLK2, Homo sapiens, UniProt Q9NYY3)", "remaining activity [%]": 106}
{"target": "Dual specificity mitogen-activated protein kinase kinase 6 (MAP2K6, Homo sapiens, UniProt P52564)", "remaining activity [%]": 83.5}
{"target": "MAP kinase-interacting serine/threonine-protein kinase 2 (MKNK2, Homo sapiens, UniProt Q9HBH9)", "remaining activity [%]": 82.1}
{"target": "Protein kinase C iota type (PRKCI, Homo sapiens, UniProt P41743)", "remaining activity [%]": 92.2}
{"target": "Mast/stem cell growth factor receptor Kit (KIT, Homo sapiens, UniProt P10721)", "remaining activity [%]": 73.2}
{"target": "Cyclin-dependent kinase 9, with cyclin T1 (CDK9, Homo sapiens, UniProt P50750)", "remaining activity [%]": 75.2}
{"target": "Serine/threonine-protein kinase Chk1 (CHEK1, Homo sapiens, UniProt O14757)", "remaining activity [%]": 65.3}
{"note": "Repeated from above (series 2):"}
{"Structure (SMILES)": "CC(Oc1ccc(F)cc1Br)C(=O)NCC(C)c1ccncc1 (centres unmarked)", "remaining compound": "1.84%"}
{"Structure (SMILES)": "CC(C)C[C@@H]1N/C(=N/c2ccccc2)N(c2ccccc2)C1=O", "remaining compound": "48.8%"}
{"Structure (SMILES)": "Nc1ccc2oc(=O)c3c(c2c1)CC(C(F)(F)F)S3 (centres unmarked)", "remaining compound": "38.2%"}
{"Structure (SMILES)": "Cc1oc(-c2nc(C#N)c(N(C)C)o2)cc1S(=O)(=O)N(C)c1ccccc1", "remaining compound": "95.7%"}
{"Structure (SMILES)": "O=C1Cn2nnc(C(=O)c3ccccc3)c2C2(CCCCC2)O1", "remaining compound": "89.5%"}
{"Structure (SMILES)": "CC(C)=CCO[C@H]1CCOC[C@H]1Nc1ncc(F)c(N2CCOCC2)n1", "remaining compound": "0.0252%"}
{"Structure (SMILES)": "COc1cc(C)c(S(=O)(=O)N2CCN(c3cc(-n4ccnc4C)ncn3)CC2)cc1C", "remaining compound": "1.16%"}
{"Structure (SMILES)": "CC(C)(C)c1cnnn1-c1ccc(C(=O)COC(=O)c2ccccc2)cc1", "remaining compound": "< 1%"}
